Measured values of several laboratories.
Numbers after ± are the reported error.
rep main protease: Replicase polyprotein 1ab, main protease (rep, Severe acute respiratory syndrome coronavirus 2, UniProt P0DTD1)
Spike glycoprotein: Spike glycoprotein (Severe acute respiratory syndrome coronavirus 2, UniProt P0DTC2)

SMILES | target or system | assay | test system | setting | scale | measurement | result
CC[C@H](C)[C@H](NC(=O)[C@H](C)NC(=O)[C@H](CCC(=O)O)NC(=O)[C@H](CCC(=O)O)NC(=O)[C@H](CC(C)C)NC(=O)[C@H](CCCCN)NC(=O)[C@H](CCCCN)NC(=O)[C@H](CCSC)NC(=O)[C@H](CCC(=O)O)NC(=O)[C@H](Cc1ccc(O)cc1)NC(=O)[C@H](CCC(=O)O)NC(=O)[C@H](CC(C)C)NC(=O)[C@H](CC(=O)O)NC(=O)[C@H](CC(C)C)NC(=O)[C@H](Cc1ccccc1)NC(=O)[C@@H](NC(=O)[C@@H](NC(=O)[C@H](CC(N)=O)NC(=O)[C@@H](NC(=O)[C@H](CCC(N)=O)NC(=O)[C@H](CC(=O)O)NC(=O)[C@H](CC(C)C)NC(=O)[C@@H](N)CO)[C@@H](C)CC)C(C)C)[C@@H](C)O)C(=O)N[C@@H](CCCCN)C(=O)N[C@@H](CCCCN)C(=O)N[C@@H](CC(C)C)C(=O)N[C@@H](CCC(=O)O)C(=O)N[C@@H](CCC(=O)O)C(=O)N[C@@H](CO)C(=O)N[C@@H](Cc1ccc(O)cc1)C(=O)N[C@H](C(=O)N[C@@H](CC(=O)O)C(=O)N[C@@H](CC(C)C)C(=O)N[C@@H](CCCCN)C(=O)N[C@@H](CCC(=O)O)C(=O)N[C@@H](CC(C)C)C(=O)NCC(=O)N[C@@H](CO)C(=O)NCC(=O)N[C@@H](CO)C(=O)NCC(=O)NCCOCCOCCOCCOCCC(=O)N[C@@H](CSCC(=O)O[C@H]1CC[C@@]2(C)C(=CC[C@H]3[C@@H]4CC[C@H]([C@H](C)CCCC(C)C)[C@@]4(C)CC[C@@H]32)C1)C(N)=O)[C@@H](C)CC | SARS-CoV-2 | pseudovirus infection | – | concentration not given, room temperature, storage | – | fold reduction of activity | ~58 fold
CCC[C@H](N[C@H]1CCc2cc(F)cc(F)c2C1)C(=O)Nc1cn(C(C)(C)CNCC(C)(C)C)cn1 | rep main protease | reporter gene (Gaussia luciferase), inhibitor | – | 20 µM | – | inhibition | -1.06%
C[C@H](CCC(=O)O)[C@H]1CC[C@H]2[C@@H]3CC[C@@H]4C[C@H](O)CC[C@]4(C)[C@H]3C[C@H](O)[C@]12C | Angiotensin-converting enzyme 2 (ACE2, Homo sapiens, UniProt Q9BYF1) | spike protein binding | – | together with: SARS-CoV-2 spike protein | – | Emax | -69.1%
O=c1c(O)c(-c2ccc(O)cc2O)oc2cc(O)cc(O)c12 | Replicase polyprotein 1ab, nsp14 N7-methyltransferase (rep, Severe acute respiratory syndrome coronavirus 2, UniProt P0DTD1) | N7-methyltransferase activity, inhibitor, Py-FLINT | – | – | – | Hill slope | 1.61 ± 0.12
Cl.NCCc1ccc(S(=O)(=O)F)cc1 | rep main protease | reporter gene (Gaussia luciferase), inhibitor | – | 20 µM | – | inhibition | 3.07%
O=C(N[C@@H](CNC(=O)[C@@H]1CCCc2cn[nH]c21)c1ccc2ccccc2c1)c1cccnc1 | rep main protease | enzyme activity, inhibitor | – | 5 µM, run 2 | – | inhibition | 12.5%
CC(=O)c1ccc(O)c(O)c1 | rep main protease | reporter gene (mKate2), inhibitor | – | 20 µM | – | inhibition | -0.847%
O=C(OC[C@H]1OC(OC(=O)c2cc(O)c(O)c(O)c2)[C@H](OC(=O)c2cc(O)c(O)c(O)c2)[C@@H](OC(=O)c2cc(O)c(O)c(O)c2)[C@@H]1OC(=O)c1cc(O)c(O)c(O)c1)c1cc(O)c(O)c(O)c1 (stereo partly drawn) | Spike glycoprotein | binding, biolayer interferometry | – | – | – | kon | 558 M⁻¹ s⁻¹
Cc1nc(C(=O)N2CC[C@H](N[C@@H]3N=C(c4ccccc4)Nc4ccccc43)C2)cc(=O)[nH]1 | rep main protease | enzyme activity, inhibitor | – | 5 µM, run 2 | – | inhibition | 15.8%
CNC(=O)[C@@H](NC(=O)[C@H](CC(C)C)[C@H](O)C(=O)NO)C(C)(C)C | Daboia russelii venom proteases (SVMP) | protease activity, inhibitor | MH population | 10 µM, together with: azocasein substrate | reference: venom alone | remaining activity | 0%
CC[C@H](C)[C@H](NC(=O)[C@H](Cc1c[nH]cn1)NC(=O)[C@H](CO)NC(=O)CNC(=O)[C@H](CCC(=O)O)NC(=O)[C@H](CCSC)NC(=O)[C@@H](NC(=O)[C@H](Cc1c[nH]cn1)NC(=O)[C@H](CO)NC(=O)[C@H](CCSC)NC(=O)[C@H](C)NC(=O)[C@H](CC(N)=O)NC(C)=O)C(C)C)C(=O)N[C@@H](CC(N)=O)C(=O)N[C@@H](Cc1c[nH]c2ccccc12)C(=O)N[C@@H](CC(=O)O)C(=O)N[C@@H](C)C(N)=O | Polyprotein P1234, nsP2 protease domain (Chikungunya virus, UniProt Q8JUX6) | protease activity, inhibitor, FRET | – | 20 min, pH 7.5, 20 °C | – | IC50 | ≤ 900 µM
Cc1ccc(C)c(C(=O)N2CC[C@@H]([C@@H]3CCCN(C(=O)c4cccc5oc(=O)[nH]c45)C3)C2)c1 | rep main protease | enzyme activity, inhibitor | – | 5 µM, mean of runs | – | inhibition | 12.3%
CC(C)=CCc1cc2c(cc1O)O[C@H](c1ccc(O)cc1)CC2=O | Spike glycoprotein | binding, BLI | – | – | – | kon | 1800 M⁻¹ s⁻¹
Nc1ncnc2c([C@@H]3N[C@H](CO)[C@@H](O)[C@H]3O)c[nH]c12 | Sudan ebolavirus | viral replication | HeLa, Boniface | 12.5 µM | – | inhibition | 74.4%
CC1CCCCN1CCCNC(=O)c1cc(Sc2ccc(Cl)cc2)nc2ccccc12 (stereo not drawn) | SARS-CoV-2 | cytopathic effect | USA_WA1/2020 | first round 5-point | – | AC50 | 6.31 µM
Cc1nc(N)c2cnn(CCCNC(=O)c3ccc(S(=O)(=O)F)cc3)c2n1 | Calmodulin-sensitive adenylate cyclase (cya, Bacillus anthracis, UniProt P40136) | – | – | – | – | kinact | 0.00202 s⁻¹
CCn1c2ccccc2c2cc(CN3CCN(Cc4cccc(Cl)c4)CC3)ccc21 | SARS-CoV-2 | cytopathic effect | USA_WA1/2020 | round 2, 5-point | – | efficacy | 106%
O=C(CCc1cncc2ccccc12)N1CCc2cccc(-c3cn(CCO)nn3)c21 | rep main protease | enzyme activity, inhibitor | – | 5 µM, mean of runs | – | inhibition | 21.1%
Cn1cnc(Cn2c(=O)[nH]/c(=N\c3cc4cn(C)nc4cc3Cl)n(Cc3cc(F)c(F)cc3F)c2=O)n1 | – | – | human, all renal function groups | oral, 375 mg, treatment-related dry mouth, Severe severity | – | patients with adverse event | 0%
CC(C)=CCC/C(C)=C/COc1ccc2ccc(=O)oc2c1 | rep main protease | reporter gene (mKate2), inhibitor | HEK293T | 20 µM | – | inhibition | 0.699%
CC[C@H](C)[C@H](NC(=O)[C@H](CC(C)C)NC(=O)[C@H](Cc1c[nH]c2ccccc12)NC(=O)[C@H](CCC(N)=O)NC(=O)[C@@H](NC(=O)[C@H](Cc1ccccc1)NC(=O)[C@H](C)NC(=O)[C@H](CCCCNC(=O)COCCOCCNC(=O)COCCOCCNC(=O)CC[C@H](NC(=O)CCCCCCCCCCCCCCCCCCC(=O)O)C(=O)O)NC(=O)[C@H](CCC(N)=O)NC(=O)[C@H](C)NC(=O)[C@@H](NC(=O)[C@H](CCCCN)NC(=O)[C@H](CC(=O)O)NC(=O)[C@H](CC(C)C)NC(=O)C(C)(C)NC(=O)[C@@H](NC(=O)[C@H](CO)NC(=O)[C@H](Cc1ccc(O)cc1)NC(=O)[C@H](CC(=O)O)NC(=O)[C@H](CO)NC(=O)[C@@H](NC(=O)[C@H](Cc1ccccc1)NC(=O)[C@@H](NC(=O)CNC(=O)[C@H](CCC(=O)O)NC(=O)C(C)(C)NC(=O)[C@@H](N)Cc1ccc(O)cc1)[C@@H](C)O)[C@@H](C)O)[C@@H](C)CC)[C@@H](C)CC)C(C)C)C(=O)N[C@@H](C)C(=O)NCC(=O)NCC(=O)N1CCC[C@H]1C(=O)N[C@@H](CO)C(=O)N[C@@H](CO)C(=O)NCC(=O)N[C@@H](C)C(=O)N1CCC[C@H]1C(=O)N1CCC[C@H]1C(=O)N1CCC[C@H]1C(=O)N[C@@H](CO)C(N)=O | – | measured: anti-drug antibodies | healthy human subjects | 5/5/8/10 mg escalating, titer increase ≥4-fold | – | subjects with treatment-boosted ADA | 0%
